Measurements gathered from unrelated publications.
Lines come from different studies, so protocols differ. Several values in a cell are separate wells, animals, samples, runs or records. ± marks the error that the study gave.

`COc1cc(N2CCN(C(=O)CCOCCNC(=O)[C@@H]3CCCN3)CC2)ccc1Nc1ncc(Cl)c(Nc2ccccc2P(C)(C)=O)n1` — result for “S phase cells”: 30.4% and 30.2% and 29.6% (H3122; flow cytometry; 500 nM, 24 h).
`Fc1ccc(Nc2nc(NC3CCCCC3)c3ccccc3n2)cc1F` has a pIC50 of 5.7 (transfected HEK293 cells; β-arrestin2 recruitment, negative allosteric modulator, BRET; 30 min pre-incubation, β1AR ECL1/2 chimera, with: isoproterenol 1 µM).
For `CC1(C)C[C@@H](Nc2cccc(-c3sc(C(=O)O)c(OCC(=O)O)c3Cl)c2)CCN1S(=O)(=O)Cc1cccc(NC(=O)CN2CCC(c3ccc4c(c3)oc(=O)n4C3CCC(=O)NC3=O)CC2)c1` (some centres unmarked), the fold change was 0.947 and 1 and 0.98 and 1.03 and 0.994 and 1.02 (B16-F10; HTRF, measured: phospho-STAT1 Tyr701; 0.005 µM, with: IFN-γ; baseline: DMSO).
For `CCC(=CCc1c(O)cc2c(c1O)C(=O)CC(c1ccc(O)cc1)O2)CC` (centres unmarked), the >G2 cells was 11.8 ± 0.25% (HeLa; flow cytometry; 12 µM, 48 h).
For `Cc1ncsc1-c1ccc(C(C)NC(=O)C2CC(O)CN2C(=O)C(NC(=O)CCCCCCCCCCN2CCCC(Nc3ncc(Cl)c(Nc4ccccc4S(=O)(=O)C(C)C)n3)C2)C(C)(C)C)cc1` (centres unmarked), “log2 fold change” read -2.08 (22Rv1; RNA-seq, measured: LINC01547 mRNA; concentration not given; baseline: DMSO).
`O=C(NCc1cc(F)cc(F)c1)[C@@]1(O)CCN(c2ccc3[nH]ccc3c2)C1=O` has an efficacy of 39% (LXFA526 lung adenocarcinoma cells; colony formation, soft agar clonogenic; concentration not given).
The cell growth of `O=C(Nc1nnc2c1c(-c1ccc(Cl)cc1)nc1sc(=Cc3ccco3)c(=O)n12)c1ccccc1` (mixture of isomers) is reported as 58.5% (M14; SRB; 10 µM, NCI60 single-dose screen; baseline: untreated).
`CCCCCCCCN(CCC(=O)Nc1ccccc1)C(=O)C1CCCN1` (centres unmarked) has a viability of 70 ± 8% (progeroid mouse fibroblasts, Lmna G609G/G609G; MTT; 2 µM, 72 h; baseline: vehicle-treated wild type).
For `Fc1ccc(Nc2nc(NC3CCCCC3)c3cc(C(F)(F)F)ccc3n2)cc1F`, the pIC50 was 6.8 (transfected HEK293 cells; β-arrestin2 recruitment, negative allosteric modulator, BRET; 30 min pre-incubation, β1AR ECL1 chimera, with: isoproterenol 1 µM).
`CN1CCCNC(=O)c2cccc(c2)C(=O)NCCCN(C)CCCNc2cccc3c2C(=O)c2cccc(c2C3=O)NCCC1`: “log2 fold change” -0.73 (SAS; RNA-Seq, measured: CCNB1IP1 mRNA; 1 µM, 6 h; baseline: untreated cells).
For `CNC(NN=Cc1ccc([N+](=O)[O-])o1)=[S+][Au-][Cl]`, “apoptotic cells increase” read 30% (CAKI-1; annexin V/PI flow cytometry; 15 µM (IC50), 72 h).
`CCCCCCc1cccc([C@H](O)C[C@H](CO)NC(=O)CCCCCCCCCCBr)c1` gave a hexosylceramide level of 14700 pmol/sample and 23500 pmol/sample and 21700 pmol/sample (HeLa; CERT activity, HPLC-MS/MS lipidomics, measured: hexosylceramide 24:1; 1 µM, 24 h, not cell-number normalised).
For `O=C(NCCCSc1ccc2c(/C=C/c3ccccn3)n[nH]c2c1)c1ccc(Cl)c(C(F)(F)F)c1`, the GI50 was 190 nM (Ba/F3 TEL-VEGFR2; cell growth, CCK-8).
With `C=C(NC(=O)c1csc(-c2ccc(NC(=O)CCCCCBr)cc2)n1)C(=O)NC(=C)C(=O)OC` the EC50 was 2000 nM (NCI-H1792; cell growth or viability).
For `CCN(C(=O)c1cc(F)ccc1Oc1nncnc1N1CCC2(C1)CN([C@H](CCCN(C)CCOC)C(C)C)C2)C(C)C`, the GI50 was greater than 10000 nM (MDA-MB-436; cell growth or viability; 7 days).
`COc1cccc(OC)c1-c1cc(C(=O)NC2(C(=O)O)C3CC4CC(C3)CC2C4)nn1-c1ccc(C(=O)N(C)CCOCCOCCN(C)C(=O)[C@H](CCCCNC(=O)[C@H](CC(C)C)NC(=O)C2OC2C(=O)O)NC(=O)CN2CCN(CC(=O)[O-])CCN(CC(=O)[O-])CCN(CC(=O)[O-])CC2)cc1C(C)C.[177Lu+3]` (mixture of isomers) has an internalized fraction of 0.72 ± 0.04% (HT-29; concentration not given, 30 min; baseline: added activity).
`CC(C)c1ccc(N(C)c2ccc3c(c2)OCC[C@H]3CNc2cnccc2C(=O)O)cc1` gave an IC50 of no less than 10000 nM (DMS-53; cell growth or viability, ATP luminescence; 7 days).
With `Cc1ccc(-n2cc(CSc3nc4ccccc4n3Cc3cn(-c4ccc(C)cc4)nn3)nn2)cc1` the viability was 39.4% (MDA-MB-231; MTT; 7.81 ppm).
With `COc1cc(N2CCN(C(=O)C3CCCN3)CC2)ccc1Nc1ncc(Cl)c(Nc2ccccc2P(C)(C)=O)n1` (centres unmarked) the viability was 30% (NCI-H3122; CCK-8; 100 nM, 48 h).
`CCN(CC)CC(=O)Nc1cccc(-n2cc(-c3ccc4ccc(-c5cn(-c6cccc(NC(=O)CN(CC)CC)c6)nn5)cc4c3)nn2)c1` gave a fold regulation of 1.02 (RCC4; PCR angiogenesis array, measured: FGF2; 5 x IC50, 4 h, normoxia; baseline: untreated).
`COC(=O)c1cc(NC2=NC(=O)C(=Cc3ccc(N(C)C)cc3)S2)ccc1OC(C)=O` has a metabolite level of -0.21 fold change (MCF7; GC-MS, measured: D-Arabinose; 1 µM; baseline: DMSO).
`O=C(Nc1ccccc1)c1cccc([C@@H]2C[C@H]2NC2CCC2)c1` (racemic) has a relative growth of 94.5% and 89.7% and 96.6% (SET-2; cell growth, CellTiter-Glo; 0.1 µM, 7 d; baseline: vehicle).
`CNS(=O)(=O)Nc1nccc(Cc2c(C)c3ccc(Oc4ncccc4F)cc3oc2=O)c1F` gave an IC50 of 1.46 nM (GP2d; cell viability; 7 days).
With `COc1cccc(C(=O)Nc2ccc(Sc3ccc4c(/C=C/c5ccccn5)n[nH]c4c3)cc2)c1` the GI50 was 200 nM (Ba/F3 TEL-VEGFR2; cell growth, CCK-8).
For `Cn1ncc2cc(-c3cncc(Cl)c3N3CCC4(CCNC4=O)CC3)ccc21`, “log2 fold change” read 1.27 (LS174T; gene expression, microarray, measured: MT1F mRNA; concentration not given, 4 h; baseline: untreated cells).
`CO[C@@H]1[C@@H](OC(N)=O)[C@@H](O)[C@H](Oc2ccc3c(O)c(NC(=O)c4ccc(O)c(CC=C(C)C)c4)c(=O)oc3c2C)OC1(C)C` gave a colony count of 0.1 (HCT-116 BRCA2-/-; 250 µM, replicate 2).
`O=C(CC(=O)Nc1ccc2[nH]nc(/C=C/c3ccccn3)c2c1)Nc1cccc(F)c1` gave a GI50 of 330 nM (Ba/F3 TEL-VEGFR2; cell growth, CCK-8).
`COc1ccccc1-c1ccncc1C(=O)Nc1nnc(OCc2ccc(Cl)cc2)s1` gave a colony survival of 72.7% (MDA-MB-436 BRCA1-mutant; 0.1875 µM, mean of 3 replicates; baseline: untreated).
For `C=CC(=O)N1[C@H](c2ccc3c(c2)OCO3)c2[nH]c3ccccc3c2C[C@@H]1C(=O)NC1CC1`, “mean neuron degeneration” read 75% (rat DRG neurons; 0.04115 µM, 48 h, with: vincristine 40 nM).
